Assay results of several laboratories.
Each numbered part is a random draw from the data of one study; scales do not carry over between parts. ± gives the spread as reported.
UniProt P25100, sequence (whole entry, looked up): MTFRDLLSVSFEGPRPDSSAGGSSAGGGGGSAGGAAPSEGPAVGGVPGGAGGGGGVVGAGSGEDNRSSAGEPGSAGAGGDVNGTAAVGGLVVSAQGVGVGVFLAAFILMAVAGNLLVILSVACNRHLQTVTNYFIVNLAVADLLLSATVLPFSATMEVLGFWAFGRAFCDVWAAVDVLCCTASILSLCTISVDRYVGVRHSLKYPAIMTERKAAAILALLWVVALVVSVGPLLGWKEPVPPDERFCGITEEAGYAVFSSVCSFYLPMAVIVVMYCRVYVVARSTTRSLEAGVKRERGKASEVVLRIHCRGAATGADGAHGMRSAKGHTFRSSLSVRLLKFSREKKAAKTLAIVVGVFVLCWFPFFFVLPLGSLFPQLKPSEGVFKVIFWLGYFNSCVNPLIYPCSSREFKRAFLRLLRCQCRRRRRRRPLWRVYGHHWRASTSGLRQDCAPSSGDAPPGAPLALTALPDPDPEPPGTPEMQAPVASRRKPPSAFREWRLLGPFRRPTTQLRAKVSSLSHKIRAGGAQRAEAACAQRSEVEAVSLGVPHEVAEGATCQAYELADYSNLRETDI
UniProt P35367, sequence (whole entry, looked up): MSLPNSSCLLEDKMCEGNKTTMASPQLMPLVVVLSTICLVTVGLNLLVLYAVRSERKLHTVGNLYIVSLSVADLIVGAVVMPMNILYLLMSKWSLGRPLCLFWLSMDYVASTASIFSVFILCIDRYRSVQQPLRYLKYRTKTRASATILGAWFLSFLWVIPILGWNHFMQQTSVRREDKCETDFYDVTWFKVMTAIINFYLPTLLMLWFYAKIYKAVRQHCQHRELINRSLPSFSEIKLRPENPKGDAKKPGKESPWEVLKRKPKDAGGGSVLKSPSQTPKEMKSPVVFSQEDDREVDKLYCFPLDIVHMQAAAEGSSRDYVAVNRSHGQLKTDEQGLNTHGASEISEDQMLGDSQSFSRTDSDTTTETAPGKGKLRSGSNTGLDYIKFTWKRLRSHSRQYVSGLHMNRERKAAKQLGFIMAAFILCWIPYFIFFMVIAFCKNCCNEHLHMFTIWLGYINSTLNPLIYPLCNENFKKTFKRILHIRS
UniProt P18825, sequence (whole entry, looked up): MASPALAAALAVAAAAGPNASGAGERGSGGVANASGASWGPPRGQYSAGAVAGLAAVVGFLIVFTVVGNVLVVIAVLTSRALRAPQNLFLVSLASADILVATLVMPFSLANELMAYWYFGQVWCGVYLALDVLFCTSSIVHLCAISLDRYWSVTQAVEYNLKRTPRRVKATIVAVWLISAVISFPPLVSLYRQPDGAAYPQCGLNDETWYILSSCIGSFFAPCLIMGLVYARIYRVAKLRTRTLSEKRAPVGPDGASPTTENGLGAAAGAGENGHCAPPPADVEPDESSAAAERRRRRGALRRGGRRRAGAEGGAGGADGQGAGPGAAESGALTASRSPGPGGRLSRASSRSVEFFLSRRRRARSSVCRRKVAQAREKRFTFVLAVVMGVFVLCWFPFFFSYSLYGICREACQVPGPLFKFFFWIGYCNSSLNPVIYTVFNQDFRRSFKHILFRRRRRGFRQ
UniProt P21917, sequence (whole entry, looked up): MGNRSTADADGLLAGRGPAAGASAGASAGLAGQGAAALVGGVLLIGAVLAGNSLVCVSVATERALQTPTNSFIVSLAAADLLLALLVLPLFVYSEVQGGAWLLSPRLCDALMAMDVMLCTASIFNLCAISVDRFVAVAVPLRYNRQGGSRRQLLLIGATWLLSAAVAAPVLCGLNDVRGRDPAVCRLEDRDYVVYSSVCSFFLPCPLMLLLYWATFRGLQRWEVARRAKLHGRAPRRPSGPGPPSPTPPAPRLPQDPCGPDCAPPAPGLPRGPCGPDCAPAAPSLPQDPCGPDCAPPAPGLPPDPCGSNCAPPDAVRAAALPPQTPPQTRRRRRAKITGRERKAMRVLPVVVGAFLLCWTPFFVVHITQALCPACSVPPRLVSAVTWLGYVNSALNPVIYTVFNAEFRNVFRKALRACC
UniProt P34969, sequence (whole entry, looked up): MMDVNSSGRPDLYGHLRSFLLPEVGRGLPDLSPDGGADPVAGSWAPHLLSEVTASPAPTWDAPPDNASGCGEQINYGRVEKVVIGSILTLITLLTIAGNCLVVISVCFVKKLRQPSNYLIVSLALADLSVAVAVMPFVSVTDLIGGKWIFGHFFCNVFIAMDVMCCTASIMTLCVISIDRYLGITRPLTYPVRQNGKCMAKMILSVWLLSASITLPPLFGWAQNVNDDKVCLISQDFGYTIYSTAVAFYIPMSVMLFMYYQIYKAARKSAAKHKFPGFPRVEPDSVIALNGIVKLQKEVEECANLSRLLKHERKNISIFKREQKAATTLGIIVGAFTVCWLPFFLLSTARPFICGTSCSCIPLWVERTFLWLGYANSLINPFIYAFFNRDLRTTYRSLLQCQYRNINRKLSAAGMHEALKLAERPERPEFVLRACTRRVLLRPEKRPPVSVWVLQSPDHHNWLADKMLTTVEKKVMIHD
UniProt P13945, sequence (whole entry, looked up): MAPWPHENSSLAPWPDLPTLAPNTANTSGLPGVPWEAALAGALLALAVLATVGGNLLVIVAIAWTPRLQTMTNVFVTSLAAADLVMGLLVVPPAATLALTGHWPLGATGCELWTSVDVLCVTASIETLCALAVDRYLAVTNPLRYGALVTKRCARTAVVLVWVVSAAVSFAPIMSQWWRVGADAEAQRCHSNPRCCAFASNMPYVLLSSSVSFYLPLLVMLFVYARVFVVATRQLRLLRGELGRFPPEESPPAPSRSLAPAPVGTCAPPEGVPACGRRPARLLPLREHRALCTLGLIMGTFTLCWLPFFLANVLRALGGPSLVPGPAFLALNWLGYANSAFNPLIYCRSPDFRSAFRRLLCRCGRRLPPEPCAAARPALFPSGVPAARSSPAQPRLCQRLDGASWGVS
UniProt P08913, sequence (whole entry, looked up): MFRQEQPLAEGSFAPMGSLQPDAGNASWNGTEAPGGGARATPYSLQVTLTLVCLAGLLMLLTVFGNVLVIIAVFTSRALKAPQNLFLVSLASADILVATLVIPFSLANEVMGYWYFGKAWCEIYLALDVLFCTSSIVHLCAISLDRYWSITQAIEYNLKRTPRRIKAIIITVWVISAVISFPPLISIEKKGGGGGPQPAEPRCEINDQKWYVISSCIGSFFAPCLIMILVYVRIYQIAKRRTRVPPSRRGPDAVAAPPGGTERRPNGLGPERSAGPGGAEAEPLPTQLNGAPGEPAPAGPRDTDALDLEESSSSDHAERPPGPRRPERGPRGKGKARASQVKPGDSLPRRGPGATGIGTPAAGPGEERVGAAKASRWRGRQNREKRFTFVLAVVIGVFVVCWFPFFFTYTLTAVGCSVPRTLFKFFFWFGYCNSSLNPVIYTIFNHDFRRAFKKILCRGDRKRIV
UniProt P07550, sequence (whole entry, looked up): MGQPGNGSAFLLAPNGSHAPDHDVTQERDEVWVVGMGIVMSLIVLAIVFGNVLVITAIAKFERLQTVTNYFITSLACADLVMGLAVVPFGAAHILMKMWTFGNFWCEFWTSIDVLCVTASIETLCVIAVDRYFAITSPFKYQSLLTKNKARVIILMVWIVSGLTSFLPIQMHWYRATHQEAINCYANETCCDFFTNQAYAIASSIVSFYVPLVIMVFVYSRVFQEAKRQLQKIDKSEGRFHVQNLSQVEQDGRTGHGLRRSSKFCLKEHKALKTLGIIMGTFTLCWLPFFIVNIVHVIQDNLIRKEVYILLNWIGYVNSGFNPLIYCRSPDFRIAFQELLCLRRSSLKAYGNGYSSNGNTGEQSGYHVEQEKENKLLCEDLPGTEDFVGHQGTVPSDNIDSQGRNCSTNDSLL
UniProt Q9H3N8, sequence (whole entry, looked up): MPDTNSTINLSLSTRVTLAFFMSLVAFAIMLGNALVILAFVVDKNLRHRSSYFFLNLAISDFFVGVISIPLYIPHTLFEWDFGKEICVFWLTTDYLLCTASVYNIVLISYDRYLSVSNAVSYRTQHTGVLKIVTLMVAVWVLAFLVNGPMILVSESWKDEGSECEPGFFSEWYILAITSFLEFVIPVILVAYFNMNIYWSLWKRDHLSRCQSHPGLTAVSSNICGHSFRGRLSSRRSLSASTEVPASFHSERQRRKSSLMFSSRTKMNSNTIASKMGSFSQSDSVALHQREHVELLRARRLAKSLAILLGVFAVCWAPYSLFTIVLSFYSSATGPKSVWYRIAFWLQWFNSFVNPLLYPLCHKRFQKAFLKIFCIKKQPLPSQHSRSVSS

Study 1 — effect on: enzyme activity; action: inhibitor; tested at: 0.5 µM; reference: control
Target: BDNF/NT-3 growth factors receptor (NTRK2, Homo sapiens, UniProt Q16620)
UniProt Q16620, sequence (whole entry, looked up): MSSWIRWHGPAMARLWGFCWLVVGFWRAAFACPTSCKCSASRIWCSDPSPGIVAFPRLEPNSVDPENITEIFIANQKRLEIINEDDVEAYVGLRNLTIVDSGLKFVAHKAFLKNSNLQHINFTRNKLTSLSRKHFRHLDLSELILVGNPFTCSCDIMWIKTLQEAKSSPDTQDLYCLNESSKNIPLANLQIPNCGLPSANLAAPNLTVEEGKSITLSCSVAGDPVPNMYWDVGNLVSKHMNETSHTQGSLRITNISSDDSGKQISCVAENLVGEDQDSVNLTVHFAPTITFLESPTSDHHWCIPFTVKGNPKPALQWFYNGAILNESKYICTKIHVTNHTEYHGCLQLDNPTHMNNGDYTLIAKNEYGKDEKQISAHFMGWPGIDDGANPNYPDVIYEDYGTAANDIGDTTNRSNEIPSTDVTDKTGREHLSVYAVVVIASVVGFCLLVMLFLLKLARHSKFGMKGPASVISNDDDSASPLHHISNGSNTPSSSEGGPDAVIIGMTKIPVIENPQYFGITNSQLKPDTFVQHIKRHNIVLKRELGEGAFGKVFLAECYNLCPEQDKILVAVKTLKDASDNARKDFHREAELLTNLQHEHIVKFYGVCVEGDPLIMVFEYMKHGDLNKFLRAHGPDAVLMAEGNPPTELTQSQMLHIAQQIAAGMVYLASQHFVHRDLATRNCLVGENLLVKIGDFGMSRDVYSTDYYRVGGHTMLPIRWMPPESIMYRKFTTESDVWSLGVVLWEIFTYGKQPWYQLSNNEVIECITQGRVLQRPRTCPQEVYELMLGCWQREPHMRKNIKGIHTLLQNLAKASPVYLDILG
SMILES | remaining activity [%]
CCCNC(=O)Nc1ccc(Oc2ncnc3cc(OC)c(OC)cc23)cc1Cl | 102
Cc1cc(Nc2cc(N3CCN(C)CC3)nc(Sc3ccc(NC(=O)C4CC4)cc3)n2)[nH]n1 | 26.9
CCCCc1c(-c2ccc(OC)cc2)[nH]c2nccnc12 | 73.4
O=C1NC(=O)c2c1c1c3ccccc3[nH]c1c1[nH]c3cc(Br)ccc3c21 | 68.1
CN1CCN(c2ccc3nc(-c4c(N)c5c(F)cccc5[nH]c4=O)[nH]c3c2)CC1 | 5.72
Cc1ccc(S(=O)(=O)/C=C/C#N)cc1 | 98.5
N#Cc1cnc2cnc(NCc3cccnc3)cc2c1Nc1ccc(F)c(Cl)c1 | 101
COc1ccc2c(c1)c(C1=C(c3c[nH]c4ccccc34)C(=O)NC1=O)cn2CCCN(C)C | 88.1
O=C(c1cc2cc(O)ccc2[nH]1)c1cc2cc(O)ccc2[nH]1 | 37
CN(C)S(=O)(=O)c1ccc2c(c1)/C(=C/c1cc3c([nH]1)CCCC3)C(=O)N2 | 15.6
O=C1Cc2c([nH]c3ccc(Br)cc23)-c2ccccc2N1 | 95
O=c1cc(N2CCOCC2)oc2c(-c3ccccc3)cccc12 | 112
O=Nc1c(-c2c(O)[nH]c3cc(Br)ccc23)[nH]c2ccccc12 | 10.3
O=C1Nc2ccc(Br)cc2/C1=C/c1cc2c([nH]1)CCCC2 | 43.6
COc1cccc(-c2cc(=O)c3ccccc3o2)c1N | 65.4
COc1ccc(COc2ccc(Cc3cnc(N)nc3N)cc2OC)cc1 | 31.2
c1ccc(-c2n[nH]c3c2oc2ccccc23)cc1 | 64
O=C1NC(=O)c2c1c1c3ccccc3[nH]c1n1cncc21 | 49
O=C1Nc2ccccc2/C1=C\c1c(Cl)[nH]c2ccccc12 | 95
c1ccc2c(-c3ccncc3)c[nH]c2c1 | 107

Study 2 — effect on: cell-free assay; tested at: 10 µM
SMILES: CCOc1cc(N2C3COCC2CN(C(=O)[C@H]2C[C@H](O)CN2c2ccc(Cl)cc2)C3)ccc1Cl
target | inhibition
ADRA2A (Homo sapiens, UniProt P08913) | -11%
DRD4 (Homo sapiens, UniProt P21917) | 15.5%
ADRB3 (Homo sapiens, UniProt P13945) | -5.38%
DRD3 (Homo sapiens, UniProt P35462) | 1.58%
HRH1 (Homo sapiens, UniProt P35367) | 11.2%
HRH4 (Homo sapiens, UniProt Q9H3N8) | -13.9%
ADRA2B (Homo sapiens, UniProt P18089) | -19.9%
ADRA1D (Homo sapiens, UniProt P25100) | 7.09%
ADRB2 (Homo sapiens, UniProt P07550) | -4.63%
HTR7 (Homo sapiens, UniProt P34969) | -15.4%
ADRA2C (Homo sapiens, UniProt P18825) | 2.17%

Study 3 — effect on: acetyl-histone H4 peptide binding; method: AlphaScreen displacement; tested at: 50 µM
Target: Bromodomain-containing protein 4, BD1 (BRD4, Homo sapiens, UniProt O60885)
SMILES | inhibition [%]
N=C(N)NCCNS(=O)(=O)c1cccc2cnccc12 | 10.3
COc1ccc(C)c(Nc2cc(OCCN3CCOCC3)nc(-n3cnc4ccccc43)n2)c1 | 54.9
Cc1ccc(C=C(C#N)c2nc3ccccc3s2)o1 | 31.6
O=C(Nc1ccncc1)Nc1c(Cl)cc(Cl)cc1Cl | 9.15
Cc1c(C(=O)Nc2ccccc2)sc2nc[nH]c(=O)c12 | 5.7
COc1ccc(CNC(=O)c2n[nH]c3ccccc23)cn1 | 5.9
CCOC(=O)c1cnc2cc(OCCOC(C)C)c(OCCOC(C)C)cc2c1O | 5.55
Cl.O=S(=O)(c1cccc2c(Cl)cccc12)N1CCCNCC1 | 5.1
O=C1C(Cl)=C(N2C(=O)CCC2=O)C(=O)c2ccccc21 | 10.1
O=C1Nc2ccccc2C1=C1Nc2ccccc2C1=NO | 93.5
O=c1[nH]c2ncc(-c3cccnc3)nc2n1C1CCCC1 | 4.8
COc1nccc(-c2c(-c3ccc(F)cc3)ncn2C2CCC(O)CC2)n1 (stereo not drawn) | 72.8
O=C(NCc1ccccn1)c1n[nH]c2ccccc12 | 7

Study 4 — effect on: kinase activity
Structure (SMILES): COc1cc(C(=O)N2CCC(N3CCN(C)CC3)CC2)ccc1Nc1ncc2c(n1)N(C)c1ccccc1C(=O)N2C
target | tested at | remaining activity
PKBa | 1 µM | 71 ± 1%
BRSK1 | 10 µM | 78 ± 5%
p38d MAPK | 1 µM | 102 ± 6%
EPH-A2 | 1 µM | 98 ± 5%
MKK1 | 10 µM | 86 ± 6%
MEKK1 | 10 µM | 83 ± 7%
VEG-FR | 1 µM | 64 ± 5%
GCK | 10 µM | 99 ± 4%
IRR | 1 µM | 80 ± 11%
PKCa | 1 µM | 95 ± 13%

A few entries again (study 2):
target | inhibition
ADRA2A (Homo sapiens, UniProt P08913) | -11%
ADRA2C (Homo sapiens, UniProt P18825) | 2.17%
ADRB2 (Homo sapiens, UniProt P07550) | -4.63%
ADRB3 (Homo sapiens, UniProt P13945) | -5.38%
DRD3 (Homo sapiens, UniProt P35462) | 1.58%
HRH4 (Homo sapiens, UniProt Q9H3N8) | -13.9%
